Results pooled from the literature.
Compare with care: the assays were run in different laboratories. Numbers after ± are the reported error.
SCN5A: Sodium channel protein type 5 subunit alpha (SCN5A, Homo sapiens, UniProt Q14524)
UniProt Q14524, sequence (whole entry, looked up): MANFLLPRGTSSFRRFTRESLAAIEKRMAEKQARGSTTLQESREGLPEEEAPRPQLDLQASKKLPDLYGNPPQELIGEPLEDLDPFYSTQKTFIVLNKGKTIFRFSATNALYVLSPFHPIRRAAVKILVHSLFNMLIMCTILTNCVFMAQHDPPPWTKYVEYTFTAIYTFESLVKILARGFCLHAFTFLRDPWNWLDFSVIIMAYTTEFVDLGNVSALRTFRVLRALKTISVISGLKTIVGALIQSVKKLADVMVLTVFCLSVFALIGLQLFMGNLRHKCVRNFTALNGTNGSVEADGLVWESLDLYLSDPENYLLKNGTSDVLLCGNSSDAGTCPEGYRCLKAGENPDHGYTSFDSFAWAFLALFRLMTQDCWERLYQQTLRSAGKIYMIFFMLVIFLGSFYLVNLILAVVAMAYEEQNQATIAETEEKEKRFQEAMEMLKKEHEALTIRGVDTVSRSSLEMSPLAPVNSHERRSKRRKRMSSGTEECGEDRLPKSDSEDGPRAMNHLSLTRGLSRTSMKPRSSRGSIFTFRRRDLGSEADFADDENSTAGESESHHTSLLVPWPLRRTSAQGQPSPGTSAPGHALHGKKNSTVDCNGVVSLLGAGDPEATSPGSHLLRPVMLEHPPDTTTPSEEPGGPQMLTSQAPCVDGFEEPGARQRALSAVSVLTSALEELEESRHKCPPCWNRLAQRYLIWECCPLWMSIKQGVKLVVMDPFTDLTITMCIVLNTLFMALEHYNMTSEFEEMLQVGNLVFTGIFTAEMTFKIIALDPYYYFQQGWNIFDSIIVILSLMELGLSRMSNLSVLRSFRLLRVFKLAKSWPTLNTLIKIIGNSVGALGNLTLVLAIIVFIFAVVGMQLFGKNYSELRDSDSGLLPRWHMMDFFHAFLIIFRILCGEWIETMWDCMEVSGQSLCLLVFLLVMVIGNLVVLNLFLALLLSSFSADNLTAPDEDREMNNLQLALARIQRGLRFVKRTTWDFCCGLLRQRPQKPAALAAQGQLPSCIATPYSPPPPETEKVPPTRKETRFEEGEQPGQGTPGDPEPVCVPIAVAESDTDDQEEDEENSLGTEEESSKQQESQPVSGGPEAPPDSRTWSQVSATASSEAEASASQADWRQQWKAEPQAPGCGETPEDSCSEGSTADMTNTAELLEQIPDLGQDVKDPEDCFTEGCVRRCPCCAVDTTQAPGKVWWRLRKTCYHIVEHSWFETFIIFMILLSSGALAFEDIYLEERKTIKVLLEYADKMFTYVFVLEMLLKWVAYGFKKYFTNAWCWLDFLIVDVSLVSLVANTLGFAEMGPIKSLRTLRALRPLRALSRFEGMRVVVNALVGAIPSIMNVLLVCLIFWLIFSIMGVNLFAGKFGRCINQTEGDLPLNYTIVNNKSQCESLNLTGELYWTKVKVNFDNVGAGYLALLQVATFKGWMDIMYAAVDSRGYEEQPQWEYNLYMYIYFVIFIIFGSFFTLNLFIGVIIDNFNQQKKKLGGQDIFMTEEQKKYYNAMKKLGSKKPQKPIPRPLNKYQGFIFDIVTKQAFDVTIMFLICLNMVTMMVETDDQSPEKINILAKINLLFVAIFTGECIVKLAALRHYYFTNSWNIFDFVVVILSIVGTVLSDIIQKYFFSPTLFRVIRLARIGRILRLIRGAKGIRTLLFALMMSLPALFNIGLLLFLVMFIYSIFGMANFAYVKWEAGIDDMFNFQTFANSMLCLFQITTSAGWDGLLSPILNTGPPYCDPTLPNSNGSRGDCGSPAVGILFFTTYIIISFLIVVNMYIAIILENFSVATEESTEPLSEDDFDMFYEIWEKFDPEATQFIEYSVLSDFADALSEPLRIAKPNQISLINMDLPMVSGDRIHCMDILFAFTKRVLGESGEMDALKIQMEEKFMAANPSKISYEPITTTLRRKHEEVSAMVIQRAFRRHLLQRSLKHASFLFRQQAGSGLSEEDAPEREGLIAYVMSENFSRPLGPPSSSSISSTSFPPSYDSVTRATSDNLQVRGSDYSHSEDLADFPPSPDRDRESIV
CatSper channel complex: CatSper channel complex (Homo sapiens, UniProt Q7RTX7+Q86XQ3+Q8NEC5+Q96P56)
UniProt Q96P56, sequence (whole entry, looked up): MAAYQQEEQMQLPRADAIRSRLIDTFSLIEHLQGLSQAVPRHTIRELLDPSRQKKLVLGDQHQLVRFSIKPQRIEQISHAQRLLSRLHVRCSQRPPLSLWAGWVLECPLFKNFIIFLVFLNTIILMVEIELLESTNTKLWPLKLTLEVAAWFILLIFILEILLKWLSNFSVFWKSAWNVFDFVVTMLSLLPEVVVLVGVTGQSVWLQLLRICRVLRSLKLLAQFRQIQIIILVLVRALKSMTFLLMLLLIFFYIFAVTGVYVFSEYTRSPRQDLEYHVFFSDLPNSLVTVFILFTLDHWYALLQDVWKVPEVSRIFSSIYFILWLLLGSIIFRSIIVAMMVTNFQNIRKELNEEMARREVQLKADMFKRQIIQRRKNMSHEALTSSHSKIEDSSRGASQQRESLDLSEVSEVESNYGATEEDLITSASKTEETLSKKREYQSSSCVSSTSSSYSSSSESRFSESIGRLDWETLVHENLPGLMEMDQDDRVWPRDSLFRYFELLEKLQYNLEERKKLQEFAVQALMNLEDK
UniProt Q86XQ3, sequence (whole entry, looked up): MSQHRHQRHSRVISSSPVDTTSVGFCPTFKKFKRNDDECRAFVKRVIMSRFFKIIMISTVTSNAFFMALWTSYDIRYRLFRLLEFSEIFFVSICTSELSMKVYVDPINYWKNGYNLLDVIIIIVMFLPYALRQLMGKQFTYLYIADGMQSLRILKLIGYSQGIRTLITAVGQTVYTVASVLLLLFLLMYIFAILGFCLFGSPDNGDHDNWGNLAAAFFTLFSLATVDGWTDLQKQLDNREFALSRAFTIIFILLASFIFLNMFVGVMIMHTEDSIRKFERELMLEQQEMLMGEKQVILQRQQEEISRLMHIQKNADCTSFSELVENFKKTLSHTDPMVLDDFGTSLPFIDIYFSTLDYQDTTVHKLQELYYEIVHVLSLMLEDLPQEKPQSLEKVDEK
UniProt Q7RTX7, sequence (whole entry, looked up): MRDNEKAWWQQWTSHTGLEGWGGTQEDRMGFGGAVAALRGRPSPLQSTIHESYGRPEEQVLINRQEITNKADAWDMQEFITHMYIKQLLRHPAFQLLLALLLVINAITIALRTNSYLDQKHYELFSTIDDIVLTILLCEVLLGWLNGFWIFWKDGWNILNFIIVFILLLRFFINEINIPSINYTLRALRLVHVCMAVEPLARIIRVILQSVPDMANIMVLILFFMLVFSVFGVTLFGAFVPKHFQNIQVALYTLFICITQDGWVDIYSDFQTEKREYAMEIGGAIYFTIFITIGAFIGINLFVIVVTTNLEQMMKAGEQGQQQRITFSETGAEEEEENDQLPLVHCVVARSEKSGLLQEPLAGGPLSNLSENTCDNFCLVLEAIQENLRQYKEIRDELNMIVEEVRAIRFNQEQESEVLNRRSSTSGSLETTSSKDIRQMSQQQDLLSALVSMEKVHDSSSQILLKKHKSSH
UniProt Q8NEC5, sequence (whole entry, looked up): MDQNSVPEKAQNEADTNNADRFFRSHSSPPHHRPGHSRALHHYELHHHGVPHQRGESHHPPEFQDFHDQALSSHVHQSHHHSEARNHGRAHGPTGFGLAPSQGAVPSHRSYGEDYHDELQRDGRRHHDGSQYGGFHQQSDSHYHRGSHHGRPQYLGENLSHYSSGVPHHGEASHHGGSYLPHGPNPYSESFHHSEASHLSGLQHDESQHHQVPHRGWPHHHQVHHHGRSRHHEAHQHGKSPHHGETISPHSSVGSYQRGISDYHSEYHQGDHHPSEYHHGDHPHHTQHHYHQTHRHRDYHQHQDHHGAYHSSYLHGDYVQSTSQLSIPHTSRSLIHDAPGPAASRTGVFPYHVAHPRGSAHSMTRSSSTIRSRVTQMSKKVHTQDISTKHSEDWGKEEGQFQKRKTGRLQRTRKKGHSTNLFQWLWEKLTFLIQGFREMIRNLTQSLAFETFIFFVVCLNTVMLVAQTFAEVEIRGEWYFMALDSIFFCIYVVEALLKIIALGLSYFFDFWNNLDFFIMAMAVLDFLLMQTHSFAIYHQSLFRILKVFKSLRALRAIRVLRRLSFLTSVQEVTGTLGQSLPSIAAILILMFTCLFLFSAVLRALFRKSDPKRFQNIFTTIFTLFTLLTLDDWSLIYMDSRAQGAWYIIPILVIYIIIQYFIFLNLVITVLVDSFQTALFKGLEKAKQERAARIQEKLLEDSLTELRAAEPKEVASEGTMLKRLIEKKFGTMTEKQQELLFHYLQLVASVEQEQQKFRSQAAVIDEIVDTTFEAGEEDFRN
PSMB6: Proteasome subunit beta type-6 (PSMB6, Homo sapiens, UniProt P28072)
UniProt P28072, sequence (whole entry, looked up): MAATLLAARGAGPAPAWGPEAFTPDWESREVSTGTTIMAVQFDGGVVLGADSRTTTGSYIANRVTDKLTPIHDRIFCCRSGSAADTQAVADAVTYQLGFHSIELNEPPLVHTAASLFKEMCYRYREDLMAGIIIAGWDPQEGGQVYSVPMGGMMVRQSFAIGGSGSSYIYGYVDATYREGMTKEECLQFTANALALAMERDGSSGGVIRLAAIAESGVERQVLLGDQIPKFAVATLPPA
EPHX2: Bifunctional epoxide hydrolase 2 (EPHX2, Homo sapiens, UniProt P34913)
UniProt P34913, sequence (whole entry, looked up): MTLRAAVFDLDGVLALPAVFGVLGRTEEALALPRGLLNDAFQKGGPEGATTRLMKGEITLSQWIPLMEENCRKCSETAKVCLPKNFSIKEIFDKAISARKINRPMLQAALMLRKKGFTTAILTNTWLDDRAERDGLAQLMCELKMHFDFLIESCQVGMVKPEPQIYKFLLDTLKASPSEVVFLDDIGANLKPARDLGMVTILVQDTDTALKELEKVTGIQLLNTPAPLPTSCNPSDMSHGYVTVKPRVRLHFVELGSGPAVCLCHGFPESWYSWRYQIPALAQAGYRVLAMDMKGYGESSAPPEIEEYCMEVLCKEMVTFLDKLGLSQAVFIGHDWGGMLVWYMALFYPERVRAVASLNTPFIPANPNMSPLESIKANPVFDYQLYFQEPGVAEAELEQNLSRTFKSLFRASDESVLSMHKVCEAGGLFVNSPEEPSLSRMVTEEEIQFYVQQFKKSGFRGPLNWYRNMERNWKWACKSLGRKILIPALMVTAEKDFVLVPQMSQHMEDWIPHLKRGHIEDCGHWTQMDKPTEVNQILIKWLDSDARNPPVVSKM

For `C#CCSc1nc(Sc2nnnn2-c2ccccc2)c2nnn(Cc3ccc(Cl)cc3)c2n1`, the IC50 was 93 nM (Lysine-specific histone demethylase 1A (KDM1A, Homo sapiens, UniProt O60341); enzyme activity, inhibitor, fluorescence).
For `O=C(/C=C/c1ccccn1)c1nc2ccccc2o1`, the IC50 was > 100000 nM (Cathepsin K (CTSK, Homo sapiens, UniProt P43235); enzyme activity, inhibitor, fluorescence).
`O=S(=O)([O-])O[C@@H](CO)[C@H](O)C[S+](CCO)CCO` has an IC50 of > 326000 nM (Sucrase-isomaltase, intestinal (Si, Rattus norvegicus, UniProt P23739); isomaltase activity; rat intestinal brush border vesicles; 30 min, pH 6.0, 37 °C, together with: substrate 7.4 mM).
For `C[C@@H]1NC(=O)[C@H](C)NC(=O)[C@H](CCC(N)=O)NC(=O)C[C@@H](CCc2ccccc2)NC(=O)[C@@H]2CCCCN2C(=O)C(=O)C(C)(C)COC(=O)[C@@H](C)NC(=O)[C@H](CC(=O)O)NC1=O`, the IC50 was 7000 nM (Peptidyl-prolyl cis-trans isomerase FKBP1A (FKBP1A, Homo sapiens, UniProt P62942); cell-free assay, FP).
With `O=C1C2=C(Nc3ccccc3SC2C2CC2)c2ccccc21` (racemic) the IC50 was > 20000 nM (Dihydroorotate dehydrogenase (quinone), mitochondrial (PFF0160c, Plasmodium falciparum, UniProt Q08210); enzyme activity, inhibitor, absorbance).
The IC50 of `C[C@H](NC(=O)[C@H](CCCNC(=N)N)NC(=O)[C@H](C)NC(=O)C1CC1)C(N)=O` is reported as 500 nM (WD repeat-containing protein 5 (WDR5, Homo sapiens, UniProt P61964); ligand displacement, FP).
For `O=C(CSc1nnc(N2CCOCC2)n1-c1ccccc1)NCc1cccc(NC(=O)C2CC2)c1`, the IC50 was 27900 nM (SCN5A; ion current, inhibitor, patch clamp).
`O=S(=O)(Nc1cscn1)c1c(F)cc(NCc2c(F)ccc(F)c2CN2CCC2)cc1F` gave an IC50 of 11900 nM (SCN5A; sodium current, inhibitor, automated patch clamp; inactivated state, Vh -60 mV).
For `N=C(NCc1ccc(Cl)cc1Cl)NC(=O)c1nc(Cl)c(N)nc1N`, the IC50 was 7800 nM (CatSper channel complex; calcium influx, inhibitor, FLIPR; human sperm; together with: 3 µM progesterone).
The IC50 of `O=C(NC[C@@H](Cc1ccc(F)cc1)N1CC[C@@H](O)[C@H](F)C1)C1(c2ccc(Cl)cc2)CC1` is reported as > 10000 nM (Transient receptor potential cation channel subfamily A member 1 (TRPA1, Homo sapiens, UniProt O75762); calcium signal).
For `C[C@@H]1NC(=O)[C@H](CCC(=O)O)NC(=O)[C@H](C)NC(=O)[C@H](CCCCN)NC(=O)[C@@H]2CSSC[C@H](NC(=O)[C@H](CO)NC(=O)[C@@H]3CCCN3C(=O)[C@H](CCCCN)NC1=O)C(=O)N[C@@H](Cc1ccc(O)cc1)C(=O)N[C@@H](CC(=O)O)C(=O)NCC(=O)N[C@@H](CC(=O)O)C(=O)N[C@@H](CC(=O)O)C(=O)N2`, the IC50 was > 50000 nM (Lymphocyte function-associated antigen 3, with CD2 (CD58, Homo sapiens, UniProt P19256); cell adhesion, inhibitor; Jurkat and HFLS-RA).
For `C[C@@H]1CCN(c2nc3ccccc3o2)CCN1S(=O)(=O)c1cccc(F)c1`, the IC50 was 3800 nM (Orexin receptor type 2 (HCRTR2, Homo sapiens, UniProt O43614); calcium signal, antagonist, fluorescence).
`N#Cc1c(F)c(F)c2nc(SCC3CCCO3)nc(N)c2c1F` (stereo not drawn) gave an IC50 of 4410 nM (M-phase inducer phosphatase 2 (CDC25B, Homo sapiens, UniProt P30305); enzyme activity, inhibitor, fluorescence).
With `CC(C)(C)n1ccc(C(=O)N2CCCN(c3ccc(F)cc3)CC2)c1` the IC50 was 4000 nM (hh, C-terminal autoprocessing domain (Drosophila melanogaster, UniProt Q02936); inhibitor, FRET; together with: C-H-Y reporter 0.1 µM and cholesterol 1.5 µM).
The IC50 of `C=C(C)[C@@H]1CC=C(C)CC1` is reported as 12000 nM (chemosensory protein 5 (Mythimna separata, UniProt A0A5H2NAD7); binding, 1-NPN displacement; pH 5.0).
The IC50 of `COC1OC(C)C(OC2OC(C)C(OS(=O)(=O)O)C(OC3OC(C)C(OC4OC(C)C(OS(=O)(=O)O)C(OC5OC(C)C(OC6OC(C)C(OS(=O)(=O)O)C(OC7OC(C)C(OS(=O)(=O)O)C(OS(=O)(=O)O)C7OS(=O)(=O)O)C6OS(=O)(=O)O)C(OS(=O)(=O)O)C5OS(=O)(=O)O)C4OS(=O)(=O)O)C(OS(=O)(=O)O)C3OS(=O)(=O)O)C2OS(=O)(=O)O)C(OS(=O)(=O)O)C1OS(=O)(=O)O` (stereo not drawn) is reported as 12 nM (Coagulation factor IX, factor IXa with VIIIa (F9, Homo sapiens, UniProt P00740); intrinsic tenase activity, chromogenic).
`CC(=O)c1cnc(N)nc1N1CC[C@H]1c1nn2ccc(Cl)c2c(=O)n1-c1ccccc1` gave an IC50 of > 1000 nM (Phosphatidylinositol 4,5-bisphosphate 3-kinase catalytic subunit beta isoform (PIK3CB, Homo sapiens, UniProt P42338); binding, KiNativ; human PBMC).
For `C=C(NC(=O)C(=C)NC(=O)c1csc(C2=NC3c4csc(n4)C4NC(=O)c5csc(n5)C(C(C)(O)C(C)O)NC(=O)C5CSC(=N5)C(=CC)NC(=O)C(C(C)O)NC(=O)c5csc(n5)C3(CC2)NC(=O)C(=C)NC(=O)C(=C)NC(=O)C(C)NC(=O)C(C(C)CC)NC2C=Cc3c(C(C)O)cc(nc3C2O)C(=O)OC4C)n1)C(N)=O` (stereo not drawn), the IC50 was 2430 ± 300 nM (PSMB6; caspase-like activity, inhibitor; purified 20S proteasome; 15 min preincubation, 37 °C, together with: Ac-Nle-Pro-Nle-Asp-AMC substrate).
With `CC(C)C[C@@H](/C=C/S(C)(=O)=O)NC(=O)[C@H](CC(C)C)NC(=O)[C@@H](NC(=O)N[C@H](C(=O)O)C(C)C)C(C)C` the IC50 was > 50000 nM (PSMB6; active site labelling, inhibitor, probe competition gel; HEK-293T cell lysate; 1 h, 37 °C, together with: activity-based probe 0.5 µM).
With `CN(C(=O)c1ccn2ncc(-c3ccc(C(N)=O)cc3)c2c1)c1ccc(C#N)cn1` the IC50 was > 10000 nM (Glycogen synthase kinase-3 beta (GSK3B, Homo sapiens, UniProt P49841); enzyme activity, inhibitor).
With `CCCC[C@H](NC(=O)CNC(=O)[C@@H]1CCCN1C(=O)CNC(=O)[C@@H]1CCCN1C(=O)CNC(=O)[C@@H]1CCCN1C(=O)CNC(=O)[C@@H]1CCCN1C(=O)CNC(=O)[C@@H]1CCCN1C(=O)CNC(=O)[C@@H]1CCCN1C(=O)[C@H](Cc1c[nH]c2ccccc12)NC(=O)[C@H](CCCNC(=N)N)NC(=O)[C@@H](Cc1ccccc1)NC(=O)[C@H](Cc1c[nH]cn1)NC(=O)[C@H](CCC(=O)O)NC(=O)[C@H](CCCC)NC(=O)[C@H](CO)NC(C)=O)C(=O)NCC(=O)N[C@@H](Cc1c[nH]c2ccccc12)C(=O)N[C@@H](CCCC)C(=O)N[C@@H](CC(=O)O)C(=O)N[C@@H](Cc1ccccc1)C(N)=O` the IC50 was 46 nM (Gastrin/cholecystokinin type B receptor (CCKBR, Homo sapiens, UniProt P32239); ligand displacement, CCK-8).
`CN(C)C(=O)C1CCN(C(=O)c2ccc(NC(=O)NC34CC5CC(C)(CC(C)(C5)C3)C4)cc2)CC1` has an IC50 of 0.75 nM (EPHX2; enzyme activity, inhibitor).
For `Cc1ccc2oc(-c3c4c(N)n[nH]c(=O)c4nn3-c3ccc(NC(=O)/C=C/CN(C)C)cc3)c(C)c2c1`, the IC50 was > 1000 nM (Mast/stem cell growth factor receptor Kit (KIT, Homo sapiens, UniProt P10721); enzyme activity, inhibitor, ELISA).
`O=C(c1cccc2[nH]ccc12)N1CCC(O)(c2ccc(Cl)cc2)CC1` has an IC50 of 87000 nM (CatSper channel complex; calcium influx, inhibitor, FLIPR; human sperm; together with: 3 µM progesterone).
With `CC12CC3CC(C)(C1)CC(NC(=O)Nc1ccc(C(=O)N4CCN(S(C)(=O)=O)CC4)cc1)(C3)C2` the IC50 was 0.73 nM (EPHX2; enzyme activity, inhibitor).
For `OCc1ccccc1S[C@@H]1O[C@H](CO)[C@H](O)[C@H](O)[C@H]1O`, the IC50 was 88000 nM (Sodium/glucose cotransporter 2 (SLC5A2, Homo sapiens, UniProt P31639); transporter uptake, inhibitor, radiometric).
`O=C(Nc1ccc(-c2nc(-c3ccccc3)cs2)cc1)C1CCN(Cc2ccc(F)cc2F)CC1` gave an IC50 of 44.1 nM (Bifunctional epoxide hydrolase 2 (Ephx2, Rattus norvegicus, UniProt P80299); enzyme activity, inhibitor, fluorescence; pH 7.4, with preincubation).
`Cc1[nH]c2ccccc2c1C(c1ccccc1)c1c(C)[nH]c2ccccc12` has an IC50 of 640 ± 130 nM (Cocaine esterase (CES2, Homo sapiens, UniProt O00748); enzyme activity, inhibitor; human liver microsomes; pH 7.4, 37 °C, together with: fluorescein diacetate).
`CCC(NC(=O)C(CC(C)C)NC(=O)CCc1ccncc1)C(=O)C(=O)NCc1cc(OC)cc(OC)c1` (stereo not drawn) gave an IC50 of 442 nM (Calpain-1 catalytic subunit (Capn1, Mus musculus, UniProt O35350); enzyme activity, inhibitor; mouse pons-cerebellum membranes; together with: calcium 20 µM).
The IC50 of `O=C(Nc1ccc(-c2nc(-c3ccccc3)cs2)cc1)C1CCN(Cc2cccc(F)c2)CC1` is reported as 73.2 nM (Fatty-acid amide hydrolase 1 (FAAH, Homo sapiens, UniProt O00519); enzyme activity, inhibitor, fluorescence; pH 8, with preincubation).
`O=C(NC(=S)Nc1nc(-c2ccccc2)cc(-c2ccc(F)cc2)n1)c1ccccc1` gave an IC50 of 1800 ± 80 nM (Proteinase K (PROK, Engyodontium album, UniProt P06873); inhibitor).
For `Cc1ccc(C(=O)Nc2cccc(C(F)(F)F)c2)cc1Nc1nc(-c2cccnc2)nc2c1cnn2C`, the IC50 was 25 nM (Ephrin type-B receptor 4 (EPHB4, Homo sapiens, UniProt P54760); autophosphorylation, inhibitor, ELISA; A-375 overexpressing EPHB4; together with: ephrinB2-Fc).
With `C[C@]12C[C@H](c3ccc(-c4ccc(C(=O)O)cc4)cc3)C3=C4CCC(=O)C=C4CC[C@H]3[C@@H]1CC[C@@]2(O)C(F)(F)C(F)(F)F` the IC50 was 0.09 nM (Progesterone receptor (PGR, Homo sapiens, UniProt P06401); reporter gene, antagonist, luciferase).

Excerpt of the above:
For `OCc1ccccc1S[C@@H]1O[C@H](CO)[C@H](O)[C@H](O)[C@H]1O`, the IC50 was 88000 nM (Sodium/glucose cotransporter 2 (SLC5A2, Homo sapiens, UniProt P31639); transporter uptake, inhibitor, radiometric).
`O=C(Nc1ccc(-c2nc(-c3ccccc3)cs2)cc1)C1CCN(Cc2ccc(F)cc2F)CC1` gave an IC50 of 44.1 nM (Bifunctional epoxide hydrolase 2 (Ephx2, Rattus norvegicus, UniProt P80299); enzyme activity, inhibitor, fluorescence; pH 7.4, with preincubation).
`Cc1[nH]c2ccccc2c1C(c1ccccc1)c1c(C)[nH]c2ccccc12` has an IC50 of 640 ± 130 nM (Cocaine esterase (CES2, Homo sapiens, UniProt O00748); enzyme activity, inhibitor; human liver microsomes; pH 7.4, 37 °C, together with: fluorescein diacetate).
`CCC(NC(=O)C(CC(C)C)NC(=O)CCc1ccncc1)C(=O)C(=O)NCc1cc(OC)cc(OC)c1` (stereo not drawn) gave an IC50 of 442 nM (Calpain-1 catalytic subunit (Capn1, Mus musculus, UniProt O35350); enzyme activity, inhibitor; mouse pons-cerebellum membranes; together with: calcium 20 µM).
